Published values pooled from the literature.
A part holds a random share of what one study measured. Positions count from the first letter of the parent shown.

Series 1
Target: CCNB3, cyclin fold, Cln2 fusion (human)
Method: yeast growth competition, sequencing
Medium: yeast
Setting: weak parent motif
Reference: not given
Direction: higher = stronger binding
Endpoint: normalised enrichment score
Parent: PKN2 docking peptide (human); VSAVQKLDFSDTM; partner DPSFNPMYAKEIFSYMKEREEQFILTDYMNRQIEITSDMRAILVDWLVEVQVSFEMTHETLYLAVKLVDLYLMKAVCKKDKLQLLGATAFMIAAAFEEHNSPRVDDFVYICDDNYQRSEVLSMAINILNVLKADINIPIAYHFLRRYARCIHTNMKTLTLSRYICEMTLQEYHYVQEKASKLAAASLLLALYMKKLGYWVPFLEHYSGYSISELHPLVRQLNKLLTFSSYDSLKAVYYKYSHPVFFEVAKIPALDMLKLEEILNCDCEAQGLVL
D11G: 0.339
K6P: -0.0164
T12V: 0.0329
A3P: 0.537
K6T: 0.506
D8M: 0.519
S10L: -0.0693
T12A: 0.195

Series 2
Target: ABI1, truncated, D143A, DHFR fusion (Arabidopsis thaliana)
Method: DHFR PCA, deep sequencing
Medium: yeast
Setting: methotrexate growth selection, single substitutions
Together with: (+)-ABA 58 µM
Reference: wild-type fitted maximum
Direction: higher = stronger binding
Endpoint: relative binding score
Parent: PYL1, truncated, DHFR fusion (Arabidopsis thaliana); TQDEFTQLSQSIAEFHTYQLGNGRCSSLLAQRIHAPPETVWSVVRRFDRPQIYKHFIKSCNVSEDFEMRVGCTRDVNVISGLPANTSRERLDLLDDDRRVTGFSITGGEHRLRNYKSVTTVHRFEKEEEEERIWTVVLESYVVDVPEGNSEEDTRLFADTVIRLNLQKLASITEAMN; partner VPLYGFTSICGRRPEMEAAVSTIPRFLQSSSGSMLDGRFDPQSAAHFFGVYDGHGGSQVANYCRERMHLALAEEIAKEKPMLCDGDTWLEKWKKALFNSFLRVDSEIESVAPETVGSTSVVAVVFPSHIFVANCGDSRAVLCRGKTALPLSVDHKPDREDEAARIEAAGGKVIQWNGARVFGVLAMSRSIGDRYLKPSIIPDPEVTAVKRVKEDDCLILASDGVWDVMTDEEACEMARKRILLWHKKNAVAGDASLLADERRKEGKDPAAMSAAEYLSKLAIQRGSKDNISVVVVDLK
T106D: 63.7%
D144M: 37.5%
E109L: 66.2%
T101Y: 67.4%
F47C: -5.22%
P83L: 8.01%
Y141N: 6.41%
R88S: 76.9%

Series 3
Target: Histone acetyltransferase KAT6A, both winged helices, GST fusion (KAT6A, Homo sapiens, UniProt Q92794, residues 1-181)
Method: protein binding microarray
Form: double-stranded DNA, one strand shown
Medium: in vitro
Concentration: not given
Setting: 8-mer, flanks averaged, mean of 2 arrays, mostly near background
Reference: not given
Direction: higher = stronger binding
Endpoint: E-score
Residues (chain): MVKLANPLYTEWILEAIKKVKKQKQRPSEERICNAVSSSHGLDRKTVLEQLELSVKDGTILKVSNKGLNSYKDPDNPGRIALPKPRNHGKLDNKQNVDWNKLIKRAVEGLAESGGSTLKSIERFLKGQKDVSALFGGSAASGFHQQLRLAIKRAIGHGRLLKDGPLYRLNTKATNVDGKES
CGCGGCCC: 0.326
GTAACTTA: -0.0913
AAAAACTC: -0.158
AATGGTCG: -0.0573
ATCCGGAC: 0.0512
ACGTGGTA: -0.126
CAGCATCA: -0.212
ACGAAGCA: -0.107
TACACCAA: -0.101

Single results of other studies
PhoQ, residues 284 288 289 292 302 303 AGGCYF
fold induction (PhoP, residues 12 14 15 18 19 IQSYL (Escherichia coli, UniProt P23836); Sort-seq, refers to: YFP reporter; E. coli; PhoQ-PhoP variant library, together with: 10 µM Mg2+; reference: high Mg2+ state, higher = stronger signaling): 14.6

Excerpt of the above (series 2):
F47C: -5.22%
T106D: 63.7%
E109L: 66.2%
